Assay results collected from several papers.
Every numbered part comes from another study and shows a few of its results, in no order. Substitutions count along the parent as printed.
UniProt Q9FX25, sequence (whole entry, looked up): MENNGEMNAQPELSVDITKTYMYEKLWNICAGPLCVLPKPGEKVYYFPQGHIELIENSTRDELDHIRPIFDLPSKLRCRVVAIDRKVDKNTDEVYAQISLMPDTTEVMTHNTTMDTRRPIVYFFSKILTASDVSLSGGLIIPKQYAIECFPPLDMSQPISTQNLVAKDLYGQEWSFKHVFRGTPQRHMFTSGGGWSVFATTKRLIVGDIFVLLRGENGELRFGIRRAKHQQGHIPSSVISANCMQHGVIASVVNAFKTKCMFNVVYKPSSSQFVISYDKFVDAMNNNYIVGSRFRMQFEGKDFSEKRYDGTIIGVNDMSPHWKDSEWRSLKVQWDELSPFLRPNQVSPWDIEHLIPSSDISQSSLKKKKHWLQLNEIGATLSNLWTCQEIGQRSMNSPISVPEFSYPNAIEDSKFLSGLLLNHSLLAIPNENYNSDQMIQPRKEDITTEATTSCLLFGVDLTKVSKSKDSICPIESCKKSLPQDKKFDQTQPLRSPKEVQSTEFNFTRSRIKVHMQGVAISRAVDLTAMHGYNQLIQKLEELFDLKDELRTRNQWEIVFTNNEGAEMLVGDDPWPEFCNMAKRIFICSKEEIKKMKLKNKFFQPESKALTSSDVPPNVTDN
UniProt Q9ZSY8, sequence (whole entry, looked up): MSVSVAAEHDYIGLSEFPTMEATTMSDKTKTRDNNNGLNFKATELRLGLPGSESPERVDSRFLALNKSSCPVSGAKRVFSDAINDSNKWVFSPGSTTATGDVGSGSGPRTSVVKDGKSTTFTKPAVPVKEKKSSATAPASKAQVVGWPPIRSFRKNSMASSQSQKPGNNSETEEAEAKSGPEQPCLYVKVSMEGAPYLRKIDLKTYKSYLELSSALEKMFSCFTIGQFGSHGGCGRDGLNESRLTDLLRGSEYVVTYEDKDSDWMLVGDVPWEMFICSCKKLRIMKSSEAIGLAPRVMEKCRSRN
UniProt Q8LAL2, sequence (whole entry, looked up): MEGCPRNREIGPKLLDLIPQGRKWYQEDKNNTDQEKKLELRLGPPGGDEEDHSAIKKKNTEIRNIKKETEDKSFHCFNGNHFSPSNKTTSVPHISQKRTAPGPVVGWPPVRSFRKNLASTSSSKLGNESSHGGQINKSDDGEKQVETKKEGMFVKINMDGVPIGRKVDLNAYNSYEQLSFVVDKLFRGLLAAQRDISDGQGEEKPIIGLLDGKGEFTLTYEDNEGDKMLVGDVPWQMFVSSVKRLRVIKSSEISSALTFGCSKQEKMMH

Set 1
Target: UBE2D3 UBC core domain (UniProt P61077)
UniProt P61077, sequence (whole entry, looked up): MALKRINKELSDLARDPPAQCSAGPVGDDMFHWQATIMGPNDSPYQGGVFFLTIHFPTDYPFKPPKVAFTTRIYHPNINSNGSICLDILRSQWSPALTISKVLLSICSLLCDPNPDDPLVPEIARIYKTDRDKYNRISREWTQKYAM
Technique: yeast two-hybrid
Sample: yeast
Setting: mostly zero background
Relative to: not given
Direction: higher = stronger interaction
B1: RNF31 RING domain (UniProt Q96EP0); chain AFLRRLLAQECAVCGWALPHNRMQALTSCECTICPDCFRQHFTIALKEKHITDMVCPACGRPDLTDDTQLL
B2: MKRN2 RING domain (UniProt Q9H000); chain FAFQASQDKVCSICMEVILEKASASERRFGILSNCNHTYCLSCIRQWRCAKQFENPIIKSCPECRVISEFVIPSV
B3: TRIM60 RING domain (UniProt Q495X7); chain ALVNLQEESSCPICLEYLKDPVTINCGHNFCRSCLSVSWKDLDDTFPCPVCRFCFPYKSFRR
B4: MEX3B RING domain (UniProt Q6ZN04); chain SGLRRKGSRDCSVCFESEVIAALVPCGHNLFCMECANRICEKSEPECPVCHTAVTQAIRIF
B5: RNF166 RING domain (UniProt Q96A37); chain GDSGLEAQYTCPICLEVYHRPVAIGSCGHTFCGECLQPCLQVPSPLCPLCRLPFDPKKVDK
B6: TRIM54 RING domain (UniProt Q9BYV2); chain SMDNLEKQLICPICLEMFSKPVVILPCQHNLCRKCANDVFQASNPLWQSRGSTTVSSGGRFRCPSCRHEVVLDRHGV
B7: RNF122 RING domain (UniProt Q9H9V4); chain AKKLQLYGQTCAVCLEDFKGKDELGVLPCQHAFHRKCLVKWLEVRCVCPMCNKPIASPSEAT
B8: MYCBP2 RING domain (UniProt O75592); chain TSLKQDADDMCMICFTEALSAAPAIQLDCSHIFHLQCCRRVLENRWLGPRITFGFISCPICKNKINHIVLKD
B9: RNF187 RING domain (UniProt Q5TA31); chain ALPAGPAEAACALCQRAPREPVRADCGHRFCRACVVRFWAEEDGPFPCPECADDCWQRAVEP
B10: DEF8 RING domain (UniProt Q6ZN54); chain AGRLGCSLTEIHTLFAKHIKLDCERCQAKGFVCELCREGDVLFPFDSHTSVCADCSAVFHRDCYYDNSTTCPKCARLSLRK
B11: TRIM22 RING domain (UniProt Q8IYM9); chain VKVDIEKEVTCPICLELLTEPLSLDCGHSFCQACITAKIKESVIISRGESSCPVCQTRFQPGNLRP
| Sequence | lacZ reporter activity |
| --- | --- |
| B1 (RNF31 RING domain) | 0 |
| B2 (MKRN2 RING domain) | 0 |
| B3 (TRIM60 RING domain) | 0 |
| B4 (MEX3B RING domain) | 0 |
| AEADPLGRFTCPVCLEVYEKPVQVPCGHVFCSACLQECLKPKKPVCGVCRSALAPGVRAV (RNF114 RING domain (UniProt Q9Y508)) | 0 |
| B5 (RNF166 RING domain) | 0 |
| B6 (TRIM54 RING domain) | 0 |
| B7 (RNF122 RING domain) | 0 |
| YCEMGSTFQLCKICAENDKDVKIEPCGHLMCTSCLTAWQESDGQGCPFCRCEIKGTEPII (CBLB RING domain (UniProt Q13191)) | 0 |
| MNDVLENELQCIICSEYFIEAVTLNCAHSFCSYCINEWMKRKIECPICRKDIKSKTYSL (RNF8 RING domain (UniProt O76064)) | 0 |
| LGTKLEAKYLCSACRNVLRRPFQAQCGHRYCSFCLASILSSGPQNCAACVHEGIYEEGIS (TRAF2 RING domain (UniProt Q12933)) | 0 |
| B8 (MYCBP2 RING domain) | 0 |
| B9 (RNF187 RING domain) | 0 |
| B10 (DEF8 RING domain) | 0 |
| B11 (TRIM22 RING domain) | 0 |
| LDAASGHPLVCPLCHGQYERPCLLDCFHDFCTGCLRGRATDGRLSCPLCQHQTLVKGPSG (Rnf207 RING domain (UniProt Q3V3A7)) | 0 |

Set 2
Target: CCNE1, cyclin fold, Cln2 fusion (human)
Technique: yeast growth competition, sequencing
Sample: yeast
Setting: strong parent motif
Relative to: not given
Direction: higher = stronger binding
Starting sequence: viral docking peptide; KGVKRKLFAEDSS
| Change | normalised enrichment score |
| --- | --- |
| KGVKRKLFAEASS [D11A] | 7.29 |
| KHVKRKLFAEDSS [G2H] | 7.27 |
| KGVKIKLFAEDSS [R5I] | 1.08 |
| KGRKRKLFAEDSS [V3R] | 0.347 |

Set 3
Target: Interferon regulatory factor 7, full length, phosphomimetic (IRF7, Homo sapiens, UniProt Q92985, residues 1-503, S101K/S471D/S472D/S475D/S476D/S477D/S483D/S484D/S487D)
UniProt Q92985, sequence (whole entry, unmodified, looked up): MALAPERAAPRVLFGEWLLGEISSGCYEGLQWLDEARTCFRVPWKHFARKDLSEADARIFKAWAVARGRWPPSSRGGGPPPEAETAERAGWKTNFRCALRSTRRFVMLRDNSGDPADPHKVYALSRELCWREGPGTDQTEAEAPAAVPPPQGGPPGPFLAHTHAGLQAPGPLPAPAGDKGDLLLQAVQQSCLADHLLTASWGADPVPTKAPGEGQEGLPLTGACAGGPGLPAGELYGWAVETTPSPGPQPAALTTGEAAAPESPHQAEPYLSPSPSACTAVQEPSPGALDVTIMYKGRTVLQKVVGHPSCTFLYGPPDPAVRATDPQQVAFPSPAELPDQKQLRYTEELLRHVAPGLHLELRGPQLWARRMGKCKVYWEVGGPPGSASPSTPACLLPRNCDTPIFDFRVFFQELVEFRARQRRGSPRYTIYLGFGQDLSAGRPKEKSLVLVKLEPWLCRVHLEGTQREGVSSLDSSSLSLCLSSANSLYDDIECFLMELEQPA
Technique: protein-binding microarray
Molecule type: double-stranded DNA, one strand shown
Sample: in vitro
Concentration: 250 nM
Setting: 60-bp whole probe
Added: salmon DNA 0.4 mg/ml
Relative to: random background probes
Direction: higher = stronger binding
All sequences stand within: GCCTAGCAC … GTCTTGATTCGCTTGACGCTGCTG
| Sequence | log fluorescence [z-score] |
| --- | --- |
| GCACTTTGGGAGGCCGAGGCGTGCTAG | -0.0884 |
| TCAGTTTCCATTTTCTGACTGTGCTAG | 8.36 |
| TTAGGTTTCGGTCTCGGTCAGTGCTAG | 7.6 |
| TTAGGTTGCGGGACTGGGTTAGTGCTA | -0.584 |
| TTAGGTATCGTTTTCGGTTAGTGCTAG | 7.03 |
| TCAGGACTGGGTTTCGGTTAGTGCTAG | 6.62 |
| TTAGATTTCGGGTTGCGATTAGTGCTA | 3.11 |
| GACGAACTGAGACTGCAGACGTGCTAG | -0.152 |

Set 4
Partner: ARF20 484-590 (Arabidopsis thaliana, UniProt Q9C7I9)
Technique: two-hybrid
Relative to: out of 4 tests
Direction: higher = firmer interaction
Construct (chain): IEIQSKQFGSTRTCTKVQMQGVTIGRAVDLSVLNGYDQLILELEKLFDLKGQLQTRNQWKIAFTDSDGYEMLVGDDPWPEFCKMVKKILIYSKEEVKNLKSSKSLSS
| Substance | positive tests |
| --- | --- |
| IAA27 (Arabidopsis thaliana, UniProt Q9ZSY8) | 1 |
| ARF13 (Arabidopsis thaliana, UniProt Q9FX25) | 0 |
| IAA26 (Arabidopsis thaliana, UniProt Q8LAL2) | 0 |

Further values, each from its own experiment
| Substance | target or system | test | test system | setting | how to read | quantity | result |
| --- | --- | --- | --- | --- | --- | --- | --- |
| RBM34 (Homo sapiens, UniProt P42696) | RBM28 (Homo sapiens, UniProt Q9NW13) | cross-linking MS | cell fractions | added: DMTMM |  | cross-linked residues | K369 to E456 |
| indirubin-3′-monoxime | human protein kinase panel |  |  | 0.5 µM, 300 kinases | higher = more selective | Gini score | 0.56 |
| EP400 (Homo sapiens, UniProt Q96L91) | RUVBL2 (Homo sapiens, UniProt Q9Y230) | cross-linking MS | cell fractions | added: DSSO |  | cross-linked residues | K1432 to K236 |
| PDIA3 (Homo sapiens, UniProt P30101) | SRRM2 (Homo sapiens, UniProt Q9UQ35) | cross-linking MS | cell fractions | added: DSSO |  | cross-linked residues | K274 to S1502 |
| FOXRED1 (Homo sapiens, UniProt Q96CU9) | DMAC2 (Homo sapiens, UniProt Q9NW81) | cross-linking MS |  | hits only |  | interaction screen | cross-linked |

Some of these lines once more (set 1):
| Sequence | lacZ reporter activity |
| --- | --- |
| B1 (RNF31 RING domain) | 0 |
| B2 (MKRN2 RING domain) | 0 |
| B3 (TRIM60 RING domain) | 0 |
| B4 (MEX3B RING domain) | 0 |
